{"data": "Published values pooled from the literature", "note": "Protocols differ between the studies behind these lines."}
{"Structure (SMILES)": "COc1ccc(NC(=O)N2CCCCN3[C@H](CN(C)C)[C@H](c4ccc(C#Cc5ccccc5)cc4)[C@@H]3C2)cc1", "organism": "Toxoplasma gondii", "assay": "bradyzoite growth", "setting": "glutamine-induced bradyzoites, glucose-free medium", "measurement": "EC50", "value": "80 nM"}
{"Structure (SMILES)": "Nc1ccn(C[C@@H](CO)OCP(=O)(O)O)c(=O)n1", "organism": "human alphaherpesvirus 2", "system": "HEL, strain G", "measurement": "EC50", "value": "1000 nM"}
{"Structure (SMILES)": "Cc1ccc(N(c2ccc(NC(=O)CN(C)c3ccccc3N3CCCC3=O)cc2)C(C)C)cc1", "organism": "Plasmodium falciparum", "assay": "parasite growth, SYBR Green", "system": "Dd2 population A6 P534S", "setting": "72 h", "measurement": "EC50", "value": "750 nM"}
{"Structure (SMILES)": "O=C(Nc1cc(F)c(F)c(F)c1)c1ccc(F)c(S(=O)(=O)NCc2ccc(B(O)O)cc2)c1", "organism": "hepatitis B virus", "assay": "viral replication, qPCR, measured: positive-strand HBV DNA", "system": "HepDES19, genotype D", "setting": "3 days", "measurement": "EC50", "value": "1170 nM"}
{"Structure (SMILES)": "O=S(=O)(O)CCS", "organism": "human coronavirus OC43", "assay": "virus-induced cell killing", "system": "MRC-5", "setting": "maximum over 10 doses", "measurement": "maximum inhibition", "value": "1.2%"}
{"Structure (SMILES)": "CC1(C)OB(c2ccccc2CNS(=O)(=O)c2cc(C(=O)Nc3cc(F)c(F)c(F)c3)ccc2F)OC1(C)C", "organism": "hepatitis B virus", "assay": "viral replication, strand-preferential qPCR, measured: positive-strand HBV DNA", "system": "HepDES19 cells, genotype D", "setting": "3 days", "measurement": "EC50", "value": "> 5000 nM"}
{"Structure (SMILES)": "CCNC(=O)[C@@H](NC(=O)c1ccccc1NC(=O)c1ccc(OC)cc1)C(C)C", "organism": "human coronavirus OC43", "assay": "viral replication, plaque reduction", "system": "MRC-5", "setting": "6 days", "measurement": "EC50", "value": "> 50000 nM"}
{"Structure (SMILES)": "CC1(C)OB(c2ccccc2NS(=O)(=O)c2cc(C(=O)Nc3cc(F)c(F)c(F)c3)ccc2F)OC1(C)C", "organism": "hepatitis B virus", "assay": "viral replication, qPCR, measured: positive-strand HBV DNA", "system": "HepDES19, genotype D", "setting": "3 days", "measurement": "EC50", "value": "> 5000 nM"}
{"Structure (SMILES)": "CN(C)/N=N/c1[nH]cnc1C(N)=O", "organism": "human coronavirus OC43", "assay": "virus-induced cell killing", "system": "MRC-5", "setting": "maximum over 10 doses", "measurement": "maximum inhibition", "value": "0%"}
{"Structure (SMILES)": "C[C@H]1CCC/C=C/[C@@H]2C[C@H](O)C[C@H]2[C@H](O)/C=C/C(=O)O1", "organism": "Toxoplasma gondii", "assay": "bradyzoite growth", "setting": "pH 8.2, alkaline-induced bradyzoites", "measurement": "EC50", "value": "400 nM"}
{"Structure (SMILES)": "COc1ccc2c(c1)[nH]c1c(C)nccc12", "organism": "Trypanosoma brucei", "assay": "cell growth", "measurement": "EC50", "value": "> 3000 nM"}
{"Structure (SMILES)": "CC(C)[C@H](NC(=O)c1ccccc1NC(=O)c1ccccn1)C(=O)N[C@H](CO)C(C)C", "organism": "human coronavirus OC43", "assay": "viral replication, plaque reduction", "system": "MRC-5", "setting": "6 days", "measurement": "EC50", "value": "> 50000 nM"}
{"Structure (SMILES)": "CN1CC[C@@]2(C)c3cc(OC(=O)Nc4ccccc4)ccc3N(C)[C@@H]12", "organism": "Toxoplasma gondii", "assay": "parasite growth, luciferase reporter", "system": "HFF, tachyzoite", "setting": "72 h", "measurement": "EC50", "value": "30000 nM"}
{"Structure (SMILES)": "COC(=O)[C@@H]1[C@@H](c2ccccc2)[C@]2(c3ccc(OC)cc3)Oc3cc(OC)cc(OC)c3[C@@]23N=C(C)N[C@@]13O", "organism": "Hepatitis E virus", "assay": "viral replication", "system": "HepG2 HEV-3 replicon, genotype 3", "setting": "24 h", "measurement": "EC50", "value": "2.45 nM"}
{"Structure (SMILES)": "Fc1ccc(C(OCCN2CCN(CCCc3ccccc3)CC2)c2ccc(F)cc2)cc1", "organism": "Toxoplasma gondii", "assay": "parasite growth", "system": "HFF, bradyzoite, glutamine-induced", "measurement": "EC50", "value": "7840 nM"}
{"Structure (SMILES)": "COc1ccc([C@@]23Oc4cc(OC)cc(OC)c4[C@@]24N=C(C)N[C@@]4(O)[C@H](C(=O)N(C)OC)[C@H]3c2ccccc2)cc1", "organism": "Hepatitis E virus", "assay": "viral replication", "system": "HepG2 HEV-1 replicon, genotype 1", "setting": "24 h", "measurement": "EC50", "value": "0.64 nM"}
{"note": "Excerpt of the above:"}
{"Structure (SMILES)": "COc1ccc([C@@]23Oc4cc(OC)cc(OC)c4[C@@]24N=C(C)N[C@@]4(O)[C@H](C(=O)N(C)OC)[C@H]3c2ccccc2)cc1", "organism": "Hepatitis E virus", "assay": "viral replication", "system": "HepG2 HEV-1 replicon, genotype 1", "setting": "24 h", "measurement": "EC50", "value": "0.64 nM"}
